Published values collected from several papers.

| SMILES | target or system | assay | system | conditions | measurement | result |
| --- | --- | --- | --- | --- | --- | --- |
| O=C(C=Cc1ccccc1)Nc1ccc(Oc2nnc(-c3ccc(Cl)cc3)c3ccccc23)cc1 | MCF7 | cell growth or viability, MTT | – | 1.25 µM, 24 h | viability | 39.9% |
| Cc1cccc(N(O)N=Nc2ccc(S(=O)(=O)Nc3cc(C)on3)cc2)c1 | – | ABTS scavenging | – | 240 µg/mL | inhibition | 81.4% |
| S=C(Nc1ccccc1)Nc1ccc(Oc2nnc(-c3ccc(Cl)cc3)c3ccccc23)cc1 | MCF7 | cell growth or viability, MTT | – | 2.5 µM | cell death | 96.4% |
| Fc1ccc(/C=N/N=C/c2ccc(F)cc2)cc1 | – | DPPH scavenging | – | – | IC50 | 2150 µM |
| CCC(=CCc1c(O)cc2c(c1O)C(=O)C[C@@H](c1ccccc1O)O2)CC | HeLa | cell growth or viability, MTT | – | 120 µM, 48 h | inhibition | 72.7% |
| CC(=NNC(=O)c1ccc(N)cc1)c1ccc(Nc2nnc(-c3ccc(Cl)cc3)c3ccccc23)cc1 | MCF7 | cell growth or viability, MTT | – | 0.625 µM, 24 h | viability | 44% |
| CN(Cc1ccc(C(C)(C)C)cc1)Cc1cccc2ccccc12 | Trichophyton rubrum | microbial growth, disc diffusion | ATCC28188 | 0.256 µg/mL, 6 days | inhibition zone | ≥ 55 mm |
| O=[N+]([O-])c1cccc(/C=N/N=C/c2cccc([N+](=O)[O-])c2)c1 | – | DPPH scavenging | – | – | IC50 | > 3000 µM |
| CCCN(O)N=Nc1ccc(S(=O)(=O)Nc2nccs2)cc1 | – | ABTS scavenging | – | 20 µg/mL | inhibition | 23.7% |
| O=C(Nc1ccc(Oc2nnc(-c3ccc(Cl)cc3)c3ccccc23)cc1)c1cccc([N+](=O)[O-])c1 | MCF7 | cell growth or viability, MTT | – | 78 nM, 24 h | viability | 95.7% |
| COc1cccc(C(=O)C#Cc2ccc(F)c(F)c2)c1 | Pseudomonas aeruginosa | microbial growth, absorbance | – | 10 µM, 24 h | activity vs control | 85% |
| CCCN(O)N=Nc1ccc(S(=O)(=O)Nc2cc(C)on2)cc1 | – | ABTS scavenging | – | 60 µg/mL | inhibition | 15.1% |
| CN(Cc1ccc(C2(C(F)(F)F)CC2)cc1)Cc1cccc2ccccc12 | Trichophyton rubrum | microbial growth, disc diffusion | ATCC28188 | 0.004 µg/mL, 6 days | inhibition zone | 22.8 mm |
| Cc1cccc(N(O)N=Nc2ccc(S(=O)(=O)Nc3onc(C)c3C)cc2)c1 | – | ABTS scavenging | – | 120 µg/mL | inhibition | 39.5% |
| CC(=NNC(=S)Nc1ccccc1)c1ccc(Nc2nnc(-c3ccc(Cl)cc3)c3ccccc23)cc1 | MCF7 | cell growth or viability, MTT | – | 0.312 µM, 24 h | viability | 99.8% |
| CN(O)N=Nc1ccc(S(=O)(=O)Nc2nccs2)cc1 | – | ABTS scavenging | – | 120 µg/mL | inhibition | 74.8% |
| CC(=NNC(=O)c1ccccc1Cl)c1ccc(Nc2nnc(-c3ccc(Cl)cc3)c3ccccc23)cc1 | MCF7 | cell growth or viability, MTT | – | 5 µM | cell death | 91.7% |
| Cc1noc(NS(=O)(=O)c2ccc(N=NN(O)c3ccccc3)cc2)c1C | – | ABTS scavenging | – | 60 µg/mL | inhibition | 44.4% |
| CC(=NNC(=O)c1ccncc1)c1ccc(Nc2nnc(-c3ccc(Cl)cc3)c3ccccc23)cc1 | MCF7 | cell growth or viability, MTT | – | 0.312 µM | cell death | 91.6% |
| Cc1ccc(N(O)N=Nc2ccc(S(=O)(=O)Nc3onc(C)c3C)cc2)cc1 | – | ABTS scavenging | – | 300 µg/mL | inhibition | 99.3% |
| Fc1ccc(/C=N/N=C/c2ccc(F)cc2F)c(F)c1 | – | DPPH scavenging | – | – | IC50 | > 3000 µM |

For quick reference, copied from above:
| SMILES | target or system | assay | system | conditions | measurement | result |
| --- | --- | --- | --- | --- | --- | --- |
| Cc1noc(NS(=O)(=O)c2ccc(N=NN(O)c3ccccc3)cc2)c1C | – | ABTS scavenging | – | 60 µg/mL | inhibition | 44.4% |
| Cc1cccc(N(O)N=Nc2ccc(S(=O)(=O)Nc3cc(C)on3)cc2)c1 | – | ABTS scavenging | – | 240 µg/mL | inhibition | 81.4% |
